Results from different studies.
Each numbered part is a random draw from the data of one study; scales do not carry over between parts.

Sample 1 — method: protein-binding microarray; form: double-stranded DNA, one strand shown; medium: in vitro; tested at: 940 nM top; notes: 60-bp whole probe; together with: salmon DNA 0.4 mg/ml; relative to: random background probes; reading: higher = stronger binding; shared flanks, not repeated: GCCTAGCAC … GTCTTGATTCGCTTGACGCTGCTG
Target: Interferon regulatory factor 5, full length, phosphomimetic (IRF5, Homo sapiens, UniProt Q13568-2, residues 1-514, S451D/S453D/S456D/S462D)
For `AACGGTCTCGGTATCGGGACGTGCTAG`, “fitted relative affinity” read 4.61 z-score.
`GACGGTCACGGTATCGGGACGTGCTAG`: “fitted relative affinity” 0.705 z-score.
Under “fitted relative affinity”, `GACTAACTGGGGTTTCGAGACGTGCTA` is recorded as 2.28 z-score.
`GTCGGTTTCGGGTATCGGGACGTGCTA`: “fitted relative affinity” 11.2 z-score.
`TCACATCTGCAAGATCCAACTGTGCTA` — result for “fitted relative affinity”: 0.253 z-score.
`TTAGATTTCTGGTTTCGATTAGTGCTA`: “fitted relative affinity” 8.13 z-score.
Under “fitted relative affinity”, `GACGATATCATTATCGAGACGTGCTAG` is recorded as -0.0666 z-score.
Under “fitted relative affinity”, `AACGATTTCAGTTCCGAGACGTGCTAG` is recorded as 0.832 z-score.
`TTAGGACTGGGGTTTGGGTTAGTGCTA` — result for “fitted relative affinity”: 0.107 z-score.
Under “fitted relative affinity”, `TTAGATGTCGGGTATCGATTAGTGCTA` is recorded as 2.32 z-score.
Under “fitted relative affinity”, `TTATGTCTCCTTATCCTTTAGTGCTAG` is recorded as 1.38 z-score.
For `TCATCCATCACTTTCCAACTGTGCTAG`, “fitted relative affinity” read 1.3 z-score.
For `TTTCGTATCTTCATTGTCATGTGCTAG`, “fitted relative affinity” read 8.32 z-score.
For `GACGGTATCGACTTTCGGGGCGTGCTA`, “fitted relative affinity” read 4.83 z-score.
For `TTAGGTCTCCTTATCCTTGAGTGCTAG`, “fitted relative affinity” read 0.261 z-score.
Under “fitted relative affinity”, `TTAGATTTCAGTCGCGATTAGTGCTAG` is recorded as 0.634 z-score.
`GTCGATATCAGTTTCGAGACGTGCTAG` — result for “fitted relative affinity”: 6.21 z-score.
`GACGAACGGGGGTTTCGAGACGTGCTA`: “fitted relative affinity” 4.04 z-score.
`GCCGATCTCAGTTTCGAGACGTGCTAG`: “fitted relative affinity” 4.65 z-score.
`GACGGTAACCTTATCCTGACGTGCTAG` — result for “fitted relative affinity”: -0.385 z-score.
Under “fitted relative affinity”, `TTTGGTATCGGGTATCGGTTAGTGCTA` is recorded as 10.1 z-score.
`GACGGTATCGGTTGCGGGACGTGCTAG`: “fitted relative affinity” 9.33 z-score.
For `TTAGGTATCTGTCTCGGTTAGTGCTAG`, “fitted relative affinity” read 4.17 z-score.
`CTCCTAATAAATATGAGACTGTGCTAG` — result for “fitted relative affinity”: 0.281 z-score.
`TCATTTTCCTACATCAGACTGTGCTAG` — result for “fitted relative affinity”: 1.29 z-score.

Sample 2 — method: RNA Bind-n-Seq; form: RNA; medium: in vitro; tested at: 1 µM; notes: whole 134-nt RNA, ends assumed; together with: 150 mM KCl; relative to: input library; reading: higher = stronger binding
Target: Ras GTPase-activating protein-binding protein 1, C-terminal RGG region (G3BP1, Homo sapiens, UniProt Q13283)
UniProt Q13283, sequence (whole entry, looked up): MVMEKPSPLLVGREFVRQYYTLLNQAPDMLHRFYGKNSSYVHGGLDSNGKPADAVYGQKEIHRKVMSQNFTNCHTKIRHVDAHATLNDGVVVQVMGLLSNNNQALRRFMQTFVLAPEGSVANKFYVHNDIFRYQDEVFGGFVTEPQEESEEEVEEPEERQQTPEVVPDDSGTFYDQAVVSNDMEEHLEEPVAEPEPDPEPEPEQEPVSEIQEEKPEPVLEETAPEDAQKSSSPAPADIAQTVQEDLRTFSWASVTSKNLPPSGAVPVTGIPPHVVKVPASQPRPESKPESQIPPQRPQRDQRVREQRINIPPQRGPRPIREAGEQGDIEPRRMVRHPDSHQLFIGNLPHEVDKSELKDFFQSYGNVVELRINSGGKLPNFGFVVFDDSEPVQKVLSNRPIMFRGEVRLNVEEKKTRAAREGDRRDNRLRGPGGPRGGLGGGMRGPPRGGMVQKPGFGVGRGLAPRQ
With `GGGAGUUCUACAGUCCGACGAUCCAAGUCCUGUGCUACACAUCGUAUGUACCGAAUCGGAGGUUUUUGGUUUUUUUGGAAAGUAUUAUGUUACGCCGUUCGGAUCUGCACUUCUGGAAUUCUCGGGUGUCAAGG` the log2 enrichment was -1.76.
The log2 enrichment of `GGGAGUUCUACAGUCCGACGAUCCCUGUGCUACACAUCGUAUGUACCGAAUCGGAAAAAAAGGGAAAAAAAGGGAAAAAAAGGGAAAGUAUUAUGUUACGCCGUUCGGAUCUGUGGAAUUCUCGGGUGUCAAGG` is reported as -1.92.
With `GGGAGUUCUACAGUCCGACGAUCGUGCUACACAUCGUAUGUACCGAAUCGGGGUUUUUUUGGGGAAAAAAAGGGGUUUUUUUGGGGAAAGUAUUAUGUUACGCCGUUCGGAUCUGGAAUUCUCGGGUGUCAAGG` the log2 enrichment was 0.657.
With `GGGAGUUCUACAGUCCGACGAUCCACAGACAACACGCACCCACACAGACACAGAGGGAAGGGGUUGGGAUGGGGACAGGGUGCACAGCAGGGAGGGGUAGGACCCCAGCCCCUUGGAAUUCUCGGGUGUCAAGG` the log2 enrichment was -0.864.
`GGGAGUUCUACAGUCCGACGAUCGCAGGAAGUAAAAACAAAUGGAAAUGCUUCGGAUAGUGGCAGGGGUGGGGGUUGCUAAGGAAAGGGUGGCAUGGGAGUGGGUAAAGAGUUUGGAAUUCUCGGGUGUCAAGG` has a log2 enrichment of 1.87.
`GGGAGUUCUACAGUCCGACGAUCCUGUGCUACACAUCGUAUGUACCGAAUCGGGGUUUUUUGGGGUUUUUUGGGUUUUUUGGGGAAAGUAUUAUGUUACGCCGUUCGGAUCUGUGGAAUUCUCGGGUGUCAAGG` has a log2 enrichment of -0.782.
For `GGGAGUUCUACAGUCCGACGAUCUUCCUCAAGUCCUGUGCUACACAUCGUAUGUACCGAAUCGGAGGUGGUGGAAAGUAUUAUGUUACGCCGUUCGGAUCUGCACUUCCAGCAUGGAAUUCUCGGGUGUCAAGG`, the log2 enrichment was -1.14.
The log2 enrichment of `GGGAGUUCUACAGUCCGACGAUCCUGUGCUACACAUCGUAUGUACCGAAUCGGGGUUUUUGGGGUUUUUUUGGGGAAAAAGGGGAAAGUAUUAUGUUACGCCGUUCGGAUCUGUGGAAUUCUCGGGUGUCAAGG` is reported as -0.164.
`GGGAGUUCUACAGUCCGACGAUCCCUCAAGUCCUGUGCUACACAUCGUAUGUACCGAAUCGGGGUGGUGGGGUGGAAAGUAUUAUGUUACGCCGUUCGGAUCUGCACUUCCAGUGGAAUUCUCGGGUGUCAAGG` gave a log2 enrichment of -0.233.
`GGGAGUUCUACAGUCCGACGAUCAAGUCCUGUGCUACACAUCGUAUGUACCGAAUCGGGGAGGGGAGGGGAAAAAGGGGAAAGUAUUAUGUUACGCCGUUCGGAUCUGCACUUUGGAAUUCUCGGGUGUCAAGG` has a log2 enrichment of 1.92.
The log2 enrichment of `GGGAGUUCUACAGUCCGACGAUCCACAGACAACACGCACCCACACAGACACAGGGGGAAGGGGUUGGGAUGGGGACAGGGUGCACAGCAGGGCGGGGUAGGACCCCAGCCCCUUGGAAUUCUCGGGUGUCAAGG` is reported as -0.219.
With `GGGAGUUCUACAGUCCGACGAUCACCAUGCAGGUGGGCAUCUUUGGGAAGUGGGGCAAGGGGGGGAUAGGGAGGGGCGUAACACUUUGGGAACAGGUGGUCCCAGGUCGUUUCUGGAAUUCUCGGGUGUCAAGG` the log2 enrichment was 2.21.
`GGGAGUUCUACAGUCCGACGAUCUGGCCCUGGUGGCAUGCGGGGAGGAAGAUGUGGCCUCAUGGAUCGUGGUGGUCCCGGUGGAAUGUUCAGAGGUGGCCGUGGUGGAGACAGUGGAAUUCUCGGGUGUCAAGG` has a log2 enrichment of 1.89.
With `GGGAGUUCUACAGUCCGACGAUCAAGUCCUGUGCUACACAUCGUAUGUACCGAAUCGGGUUUUGGUUUUGGGGUUUUGGGAAAGUAUUAUGUUACGCCGUUCGGAUCUGCACUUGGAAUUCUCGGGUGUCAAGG` the log2 enrichment was -0.964.

Sample 3 — method: RNA Bind-n-Seq; form: RNA; medium: in vitro; tested at: 365 nM; relative to: no-protein control; reading: higher = stronger binding
Target: RNA binding protein fox-1 homolog 2, RRM domain, GST-SBP tag (RBFOX2, Homo sapiens, UniProt O43251-10, residues 100-194)
Notes: natural RNA segment, single round, ends assumed
Residues (chain): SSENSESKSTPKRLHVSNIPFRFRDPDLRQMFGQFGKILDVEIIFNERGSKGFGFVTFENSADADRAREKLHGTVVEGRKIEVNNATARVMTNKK
Under “RBNS enrichment (R)”, `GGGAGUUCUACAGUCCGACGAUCAUAUAUAUAUUUGGCAACUUGUAUUUGUGUGUAUAUAUAUAUAUAUAUGUUUAUGUAUAUAUGUGAUUCUGAUAAAAUAGACAUUGCUAUUCUGUUUUUUAUAUGUAAAAUGGAAUUCUCGGGUGCCAA` is recorded as 1.14.
`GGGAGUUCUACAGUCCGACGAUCCAGCUUGCAGUGUGUAUAGCAUAUAGAUGCCAAUAUUAGAAUUCUUUAAAUUAUAUUUAACAUUUUCAUGCUUCUUAAUUUAACUUCACAUGUUGGGAAGUAGAUUCAGAUGGAAUUCUCGGGUGCCAA` — result for “RBNS enrichment (R)”: 0.632.
For `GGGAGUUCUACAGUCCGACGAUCUUUAGAAAAGUCAAUUUAAUAAAUUAUCGCCUUUAGCAUUGUAACAGUUUUCAAAAAUAAAGAAAAGUAGGUCCUAAUGAUGUAUUGCUUCCCCGAAAUGGUAUCACACAUGGAAUUCUCGGGUGCCAA`, “RBNS enrichment (R)” read 0.805.
Under “RBNS enrichment (R)”, `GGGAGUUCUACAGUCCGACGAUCCUGAUGUUGUGCACGUCAAUCACCGGGCACUUGCAUACUCUUAGAAACAGUUCGACUUCGGUUACUGCCUUCUCCCUUGAAAUCCUUGCUGCGUGCCCACCAGGAUUUCCUGGAAUUCUCGGGUGCCAA` is recorded as 0.625.
`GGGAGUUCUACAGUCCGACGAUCACGGACUUGUUAACCUAACCUAAUUAUGCUCAGUGGACUUCUAUAGAUGGUUUUGAAAAAUGAACUGAGCUGCCUUCCCCCGUCGCAUAACCAGUUCCAUCAUCCUGGUGUGGAAUUCUCGGGUGCCAA` — result for “RBNS enrichment (R)”: 0.585.
Under “RBNS enrichment (R)”, `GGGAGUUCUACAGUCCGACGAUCCAGUAGUAAAAUUUUCCUGUCCACUGUGAAUCAAAGCCUGAGUCACUCUAUUUAACCUUGGACACACUAAUAAGGUUUUAUUUUGAUUGUGUUCGUUUCCCCCCCCCCAAUGGAAUUCUCGGGUGCCAA` is recorded as 0.63.
For `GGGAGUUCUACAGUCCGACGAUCUUUUUUUUAAAGAAGAAAAAAAACUACAUAAUUUCUACCAGGGCCAUAUUAGCAGUGAAACAUUUUAAACUGCAGAAAUUGUGGUUUUGGUUCAGAAACAAGUUGUAUAUUGGAAUUCUCGGGUGCCAA`, “RBNS enrichment (R)” read 0.495.
`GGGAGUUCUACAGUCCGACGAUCGAAAGGAAAAAAAAGUGAAAGUUGGUAUUUAUUUCUGUGCUUUAAUUGUCUCUGAAAAUAAUGACAGUUUAUAAAAUGUUUAGGUACAAAGGCAUAAAUGAUAAUAAGUAUGGAAUUCUCGGGUGCCAA` — result for “RBNS enrichment (R)”: 0.565.
For `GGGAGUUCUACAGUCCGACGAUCGCUCUUCUUACUGUAUUUAUUAAAACUUGUAAUAAUGUGAUUUUUUUCAAGGAUAUUAGUUCAAAUUGAAAUGGUUUCACGCCACACGGAAAUCUUUAAGUUAUUUGUUGUGGAAUUCUCGGGUGCCAA`, “RBNS enrichment (R)” read 0.422.
Under “RBNS enrichment (R)”, `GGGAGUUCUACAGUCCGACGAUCCACACACAGCAACACUGAAAUCCUACAGACCAAACAAACCCACUUGUCAGCAGGAGCCGUGGUCCAGCCCAGCACCUGUGCUCUCGUAGCCGAGGCCAGCCGUGUUGGGAUGGAAUUCUCGGGUGCCAA` is recorded as 0.507.
For `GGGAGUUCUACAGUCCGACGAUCCAGGCUUGUUCCCACACUACCUCUUUAAAGCGAUUCUUCCUAUGCUGGUCUGUUCAAUCCUGCCCUCUUUGGUGCUAGAUCCAGUUGUGCCUCAGAGCAGAAGAAACAAAUGGAAUUCUCGGGUGCCAA`, “RBNS enrichment (R)” read 0.482.
`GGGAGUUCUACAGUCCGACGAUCGUUGCUUUGUUCAUAAUGUGGUUACAGUCAUAUUACACUGACCCUGAGGGUAUUAUGUAACCCUUCAGAAAACCACUUUGCCUCAUUGUGUUUCAGGAUUAACUUCUACAUGGAAUUCUCGGGUGCCAA`: “RBNS enrichment (R)” 0.299.

Sample 4 — method: universal PBM; form: double-stranded DNA, one strand shown; medium: in vitro; tested at: 600 nM; reading: higher = stronger binding
Target: Sal-like protein 4, full length isoform A (SALL4, Homo sapiens, UniProt Q9UJQ4, residues 1-1053)
UniProt Q9UJQ4, sequence (whole entry, looked up): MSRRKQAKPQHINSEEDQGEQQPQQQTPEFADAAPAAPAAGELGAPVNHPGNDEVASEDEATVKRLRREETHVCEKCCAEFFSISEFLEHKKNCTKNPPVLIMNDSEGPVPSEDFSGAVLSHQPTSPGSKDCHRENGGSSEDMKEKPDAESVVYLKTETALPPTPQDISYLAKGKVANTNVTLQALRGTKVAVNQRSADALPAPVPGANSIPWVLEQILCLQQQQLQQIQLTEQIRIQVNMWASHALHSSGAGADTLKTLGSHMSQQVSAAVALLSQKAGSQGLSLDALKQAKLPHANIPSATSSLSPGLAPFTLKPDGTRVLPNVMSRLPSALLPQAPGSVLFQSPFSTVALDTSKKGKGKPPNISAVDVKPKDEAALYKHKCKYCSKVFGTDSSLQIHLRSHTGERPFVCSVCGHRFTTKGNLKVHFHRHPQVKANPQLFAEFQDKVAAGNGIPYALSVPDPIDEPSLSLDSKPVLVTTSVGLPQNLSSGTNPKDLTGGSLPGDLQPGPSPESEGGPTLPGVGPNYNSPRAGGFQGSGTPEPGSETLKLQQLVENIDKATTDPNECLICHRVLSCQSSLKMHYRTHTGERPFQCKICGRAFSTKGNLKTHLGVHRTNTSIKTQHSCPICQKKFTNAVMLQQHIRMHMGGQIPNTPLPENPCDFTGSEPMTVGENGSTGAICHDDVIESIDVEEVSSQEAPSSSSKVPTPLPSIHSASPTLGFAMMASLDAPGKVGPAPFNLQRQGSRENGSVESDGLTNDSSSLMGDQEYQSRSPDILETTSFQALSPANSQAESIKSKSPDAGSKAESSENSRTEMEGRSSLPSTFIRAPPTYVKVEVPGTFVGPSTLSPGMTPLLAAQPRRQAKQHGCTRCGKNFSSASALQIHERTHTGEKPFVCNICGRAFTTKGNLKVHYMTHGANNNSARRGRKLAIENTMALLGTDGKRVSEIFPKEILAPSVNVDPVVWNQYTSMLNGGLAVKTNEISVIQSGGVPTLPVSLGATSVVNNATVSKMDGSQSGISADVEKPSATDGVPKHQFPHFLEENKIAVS
Notes: 8-mer, flanks averaged, mean of replicates
For `CTGTAGGA`, the E-score was -0.0745.
With `GCCTAACC` the E-score was -0.163.
The E-score of `ACCTAAGG` is reported as -0.172.
`ACGCAAAC` has an E-score of -0.0732.
For `TACTTCTA`, the E-score was 0.131.
`CGAATTCA` gave an E-score of -0.0519.
For `GTCTAGAA`, the E-score was 0.168.
`CCGTGTCG` gave an E-score of -0.33.
`GCCACAAA` has an E-score of -0.0246.
For `CGAGATAC`, the E-score was 0.136.
`CACACTAC` gave an E-score of 0.0301.
With `AAGACCAT` the E-score was 0.0463.
The E-score of `AGGTGTGC` is reported as -0.137.
`AGATCGAG` has an E-score of 0.0259.
For `AACTCTGT`, the E-score was 0.0159.
The E-score of `CTTCTTTC` is reported as 0.0393.
For `CCCCTGTC`, the E-score was -0.279.
`AATTGGCG` has an E-score of 0.141.
`AAGTGACG` has an E-score of -0.0342.
